Measurements pooled from the literature.
Every numbered part comes from another study and shows a few of its results, in no order. Positions count from the first letter of the parent shown.

Study 1
Target: Histone acetyltransferase KAT6A, both winged helices, GST fusion (KAT6A, Homo sapiens, UniProt Q92794, residues 1-181)
Technique: protein binding microarray
Molecule type: double-stranded DNA, one strand shown
Medium: in vitro
Tested at: not given
Notes: 8-mer, flanks averaged, mean of 2 arrays, mostly near background
Reference: not given
Direction: higher = stronger binding
Measurement: E-score
Construct (chain): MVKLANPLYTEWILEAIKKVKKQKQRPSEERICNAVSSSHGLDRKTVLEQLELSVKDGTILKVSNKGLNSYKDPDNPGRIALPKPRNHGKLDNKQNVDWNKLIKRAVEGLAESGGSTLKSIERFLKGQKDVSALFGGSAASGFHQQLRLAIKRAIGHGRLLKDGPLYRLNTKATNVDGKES
ACATACTA: -0.0966
ACGATCTG: -0.178
CCCGTCCG: 0.253
GCATCCGA: 0.11
GATAGGCA: -0.21
AGAATAAG: -0.149
CCTTATAC: -0.114
CGAATTAG: -0.161
AACGGTCC: 0.108
GTTGTAAA: -0.0122
ATACTCTG: 0.0135
CGTTCGGC: 0.209
CGCGTTCC: 0.338
ACGCCGTG: 0.303
CCAGTTCC: -0.0104
GAACCGAC: 0.217
CAGCCAGC: -0.283
AGACCGCG: 0.265
CAGGGTCG: -0.0144
CCGGAATC: 0.116
CCACTACA: -0.242

Study 2
Target: Ras GTPase-activating protein-binding protein 1, C-terminal RGG region (G3BP1, Homo sapiens, UniProt Q13283)
UniProt Q13283, sequence (whole entry, looked up): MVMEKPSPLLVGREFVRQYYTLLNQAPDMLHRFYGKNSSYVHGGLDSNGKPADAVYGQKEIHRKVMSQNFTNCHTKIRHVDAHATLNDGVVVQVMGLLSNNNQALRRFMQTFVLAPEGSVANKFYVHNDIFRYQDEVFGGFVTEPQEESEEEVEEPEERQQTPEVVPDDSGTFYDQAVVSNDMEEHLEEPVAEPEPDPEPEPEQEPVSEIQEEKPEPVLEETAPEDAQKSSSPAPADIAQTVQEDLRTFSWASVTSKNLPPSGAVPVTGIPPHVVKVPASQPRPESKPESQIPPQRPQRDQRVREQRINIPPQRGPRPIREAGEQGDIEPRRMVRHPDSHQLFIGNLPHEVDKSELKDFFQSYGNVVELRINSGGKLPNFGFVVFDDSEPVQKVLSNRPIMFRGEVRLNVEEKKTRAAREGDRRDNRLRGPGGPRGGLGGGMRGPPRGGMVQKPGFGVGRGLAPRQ
Technique: RNA Bind-n-Seq
Molecule type: RNA
Medium: in vitro
Tested at: 1 µM
Notes: whole 134-nt RNA, ends assumed
With: 150 mM KCl
Reference: input library
Direction: higher = stronger binding
Measurement: log2 enrichment
Shared flanks, not repeated: GGGAGUUCUACAGUCCGACGAUC … UGGAAUUCUCGGGUGUCAAGG
UCCUGUGCUACACAUCGUAUGUACCGAAUCGGGGUUUUUGGGGUUUUUGGGGAAAGGGGAAAGUAUUAUGUUACGCCGUUCGGAUCUGCA: 1.91
CACAGACAACACGCACCCACACAGACACAGAUGGAAGGGGUUGGGAUGGGGACAGGGUGCACAGCAGGGCGGGGUAGGACCCCAGCCCCU: -0.0485
CACAGACAACACGCACCCACACAGACACAGAGGGAAGGGGUUGGGAUGGGGACAGGGUUCACAGCAGGGCGGGGUAGGACCCCAGCCCCU: -0.605
UCCUCAAGUCCUGUGCUACACAUCGUAUGUACCGAAUCGGGGAGGAGGAGGAAAGUAUUAUGUUACGCCGUUCGGAUCUGCACUUCCAGC: -1.22
AAGUCCUGUGCUACACAUCGUAUGUACCGAAUCGGUUUUUGGUUUUUGGUUUUUGGGAAAGUAUUAUGUUACGCCGUUCGGAUCUGCACU: -1.81
AGUCCUGUGCUACACAUCGUAUGUACCGAAUCGGGUUUUUGGGAAAAAAAGGGAGGGAAAGUAUUAUGUUACGCCGUUCGGAUCUGCACU: 0.54
AAGUCCUGUGCUACACAUCGUAUGUACCGAAUCGGUUUGGAAAAAGGAAAAAAAGGAAAGUAUUAUGUUACGCCGUUCGGAUCUGCACUU: -1.86
GCAGGAAGUAAAAACAAAUGGAAAUGCUUCGGAUAGUGGCAGGGGUGGGGGUUGCUAAGGAAAGGGUGGGAGGGGAGUGGGUAAAGAGUU: 1.49
ACGAUGCAGGUGGGCAUCUUUGGGAAGUGGGGCAAGGGGGGGAUAGGGAGGGGGGUAACACUUUGGGAACAGGUGGUCCCAGGUCGUUUC: -1.2

Study 3
Target: CCNB3, cyclin fold, Cln2 fusion (human)
Technique: yeast growth competition, sequencing
Medium: yeast
Notes: weak parent motif
Reference: not given
Direction: higher = stronger binding
Measurement: normalised enrichment score
Parent: E2F1 docking peptide (human); PPVKRRLDLETDH; partner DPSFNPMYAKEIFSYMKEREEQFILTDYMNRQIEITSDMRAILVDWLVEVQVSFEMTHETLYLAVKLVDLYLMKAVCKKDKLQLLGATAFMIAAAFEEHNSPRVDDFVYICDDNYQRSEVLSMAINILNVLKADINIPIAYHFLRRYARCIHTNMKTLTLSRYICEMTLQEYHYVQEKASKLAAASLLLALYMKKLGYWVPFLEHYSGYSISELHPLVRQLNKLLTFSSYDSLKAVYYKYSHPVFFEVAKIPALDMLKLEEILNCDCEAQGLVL
PPVKRRLDLEKDH [T11K]: 0.466
PPVKRRWDLETDH [L7W]: -0.00153
PPVKRYLDLETDH [R6Y]: -0.0127
PPVKRRLDLETVH [D12V]: 0.15
PGVKRRLDLETDH [P2G]: 0.464
PPVKRRMDLETDH [L7M]: 0.223
PPVKRRLDLETDQ [H13Q]: 0.385
PPVKLRLDLETDH [R5L]: 0.142
PTVKRRLDLETDH [P2T]: 0.284
PPVKRRLDLETDD [H13D]: 0.345
PPVKYRLDLETDH [R5Y]: 0.153
PPVKRRLDLETDW [H13W]: 0.203
PPVERRLDLETDH [K4E]: 0.183

Study 4
Target: RNA binding protein fox-1 homolog 2, RRM domain, GST-SBP tag (RBFOX2, Homo sapiens, UniProt O43251-10, residues 100-194)
Technique: RNA Bind-n-Seq
Molecule type: RNA
Medium: in vitro
Tested at: 365 nM
Notes: natural RNA segment, single round, ends assumed
Reference: no-protein control
Direction: higher = stronger binding
Measurement: RBNS enrichment (R)
Shared flanks, not repeated: GGGAGUUCUACAGUCCGACGAUC … UGGAAUUCUCGGGUGCCAA
Residues (chain): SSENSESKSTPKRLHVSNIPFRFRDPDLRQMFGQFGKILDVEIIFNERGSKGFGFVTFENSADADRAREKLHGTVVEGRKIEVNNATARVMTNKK
CACAAGGCAGAGUUACUCGUGAGAAAGGGCAGCAGUGUUGUGUGCAUCUGUCAGUCAGGUUGUAUGGGCUGGAGGCUGGCAGGUCUGCAUGGUAGGCUGAGUUUGCUGUC: 3.12
GAGGCCCUUUAUUAUUGCUGCAGAAAACAAAAGCCUGGCUGAGUUGAUGUUUUACAUUCUCCCUUACUGAAAUCUACAUGACAUGAUGCUUCUUGCUGGGUUUUUGUACA: 0.65
GCAGCCACUGCUCCACCUCCCCCAAAUCGUCAUGGAAAGGGUGGAGAAUGGAGGGGAACCAGGCGUCCUUGGAGGCAGCUUGGGAGGGUGACUGUGUAGUGUCACCCACA: 0.468
GUAGUUUACAGAAAAAGACUUUAAAAGUGAUCUACAUGAGGAACUGUAGAUGAUGUAUUUUUUUCAUCUUUUUUGUUAACUGAUUUGCAAUAAAAAUGAUACUGAUGGUG: 0.746
AGCUUUCGUCCCCUUGCACUUAGACUCGAAGUUAGUAAAUCCUUAAAGGCUUUUUAAUAGCAGACUUCCAAAAGAUUGCAUUUAGGAUUUCUAGCAUGCUUUUAAUUUCA: 7.08
AAGCCUCCAAUGUAUUACCUACCAUGCGCAUGAAUAAUUUUCUUCCAUGGCUUUUACACUGUCAACGGCUUUACCUACUUUUUAAAAUUAAGUCUUUGAUUUUAUGAUUU: 0.323
CAGUGGGAACCUUCAUGCCUUAUUUAUUUCUAAUGGGUAAAGGGGUUUUCUUACCAAGCAUCCCUGACCUCCUGGAGACACCACCUGCUUUCCGGGCGGCACUGUGAUGG: 0.291
UCUUUUAGGCUUUGUUAACUGAAUGCUCCUCUCCUCCUCCACUGCAUAGUUAAAGCAUGUGUUCACACUGUGUAAACAUUCACAGAAGACUUUUCCUCGUGUGUUGUUGA: 1.02
